Assay results of several laboratories.
Protocols differ between the studies behind these lines. “And” joins repeats or separate records; there may be more than shown. ± marks the error that the study gave.
KCNJ13 M125R: Inward rectifier potassium channel 13 (KCNJ13, Homo sapiens, UniProt O60928, M125R)
UniProt O60928, sequence (whole entry, unmodified, looked up): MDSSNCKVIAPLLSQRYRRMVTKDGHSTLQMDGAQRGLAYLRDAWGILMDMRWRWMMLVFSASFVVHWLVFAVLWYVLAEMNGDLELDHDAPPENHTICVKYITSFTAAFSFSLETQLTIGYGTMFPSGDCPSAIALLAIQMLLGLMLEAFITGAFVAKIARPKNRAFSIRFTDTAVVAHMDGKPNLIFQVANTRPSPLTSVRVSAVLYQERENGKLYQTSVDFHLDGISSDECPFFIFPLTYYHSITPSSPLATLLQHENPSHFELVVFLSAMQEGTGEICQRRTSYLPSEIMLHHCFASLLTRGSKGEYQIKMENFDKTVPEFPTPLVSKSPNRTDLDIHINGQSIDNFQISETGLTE
Urease: Urease (Canavalia ensiformis, UniProt P07374)
UniProt P07374, sequence (whole entry, looked up): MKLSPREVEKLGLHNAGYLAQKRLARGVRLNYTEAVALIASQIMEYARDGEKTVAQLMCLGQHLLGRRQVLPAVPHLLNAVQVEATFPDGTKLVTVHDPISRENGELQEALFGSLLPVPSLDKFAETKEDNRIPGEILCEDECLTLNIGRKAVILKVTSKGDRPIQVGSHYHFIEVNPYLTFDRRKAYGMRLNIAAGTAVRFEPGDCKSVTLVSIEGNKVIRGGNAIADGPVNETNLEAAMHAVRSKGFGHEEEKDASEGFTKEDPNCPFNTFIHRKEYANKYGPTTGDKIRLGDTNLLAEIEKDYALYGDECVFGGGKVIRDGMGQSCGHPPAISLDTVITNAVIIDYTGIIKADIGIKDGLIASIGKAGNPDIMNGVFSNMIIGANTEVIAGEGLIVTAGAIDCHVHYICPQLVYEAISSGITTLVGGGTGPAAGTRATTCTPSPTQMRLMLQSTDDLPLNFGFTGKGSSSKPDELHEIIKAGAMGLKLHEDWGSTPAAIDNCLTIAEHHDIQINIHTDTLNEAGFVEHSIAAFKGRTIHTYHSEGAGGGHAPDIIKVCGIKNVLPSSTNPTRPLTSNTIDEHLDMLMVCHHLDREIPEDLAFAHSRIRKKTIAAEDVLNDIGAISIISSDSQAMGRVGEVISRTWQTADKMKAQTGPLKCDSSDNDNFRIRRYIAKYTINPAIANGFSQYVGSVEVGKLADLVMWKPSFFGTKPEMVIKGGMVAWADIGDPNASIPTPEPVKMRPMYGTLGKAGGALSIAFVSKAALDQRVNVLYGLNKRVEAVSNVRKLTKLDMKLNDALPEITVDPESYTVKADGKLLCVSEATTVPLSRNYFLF
STS: Steryl-sulfatase (STS, Homo sapiens, UniProt P08842)
UniProt P08842, sequence (whole entry, looked up): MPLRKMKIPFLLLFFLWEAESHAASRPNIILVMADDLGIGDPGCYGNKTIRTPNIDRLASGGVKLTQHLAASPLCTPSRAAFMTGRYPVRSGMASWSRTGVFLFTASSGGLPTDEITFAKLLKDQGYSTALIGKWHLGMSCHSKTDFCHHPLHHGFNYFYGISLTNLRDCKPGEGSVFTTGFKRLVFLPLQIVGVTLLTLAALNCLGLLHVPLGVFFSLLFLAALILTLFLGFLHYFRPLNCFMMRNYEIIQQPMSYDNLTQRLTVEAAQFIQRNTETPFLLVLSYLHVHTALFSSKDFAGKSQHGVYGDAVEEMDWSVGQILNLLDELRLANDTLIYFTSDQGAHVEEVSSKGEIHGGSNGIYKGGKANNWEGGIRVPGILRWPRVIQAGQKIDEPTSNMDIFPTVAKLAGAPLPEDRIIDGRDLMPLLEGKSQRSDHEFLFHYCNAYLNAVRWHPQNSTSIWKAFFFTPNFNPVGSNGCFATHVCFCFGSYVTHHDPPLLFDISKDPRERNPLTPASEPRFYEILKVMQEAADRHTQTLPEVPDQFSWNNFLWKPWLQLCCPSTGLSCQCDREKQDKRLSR
Cyp2b1: Cytochrome P450 2B1 (Cyp2b1, Rattus norvegicus, UniProt P00176)
UniProt P00176, sequence (whole entry, looked up): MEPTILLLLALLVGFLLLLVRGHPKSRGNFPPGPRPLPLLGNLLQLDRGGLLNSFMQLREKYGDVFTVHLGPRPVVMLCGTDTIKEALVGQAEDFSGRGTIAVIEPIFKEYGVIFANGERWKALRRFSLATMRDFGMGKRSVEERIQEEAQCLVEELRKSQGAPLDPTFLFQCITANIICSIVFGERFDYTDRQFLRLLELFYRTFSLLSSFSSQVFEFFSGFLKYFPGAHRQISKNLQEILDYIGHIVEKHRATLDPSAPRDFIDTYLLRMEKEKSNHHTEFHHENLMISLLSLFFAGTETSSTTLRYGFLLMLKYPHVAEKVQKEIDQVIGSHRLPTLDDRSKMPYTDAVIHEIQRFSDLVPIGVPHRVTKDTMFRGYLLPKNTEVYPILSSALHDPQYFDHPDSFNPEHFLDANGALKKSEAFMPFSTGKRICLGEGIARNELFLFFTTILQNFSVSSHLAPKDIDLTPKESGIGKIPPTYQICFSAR
Inward rectifier potassium channel 4: Inward rectifier potassium channel 4 (Homo sapiens, UniProt P48050)
UniProt P48050, sequence (whole entry, looked up): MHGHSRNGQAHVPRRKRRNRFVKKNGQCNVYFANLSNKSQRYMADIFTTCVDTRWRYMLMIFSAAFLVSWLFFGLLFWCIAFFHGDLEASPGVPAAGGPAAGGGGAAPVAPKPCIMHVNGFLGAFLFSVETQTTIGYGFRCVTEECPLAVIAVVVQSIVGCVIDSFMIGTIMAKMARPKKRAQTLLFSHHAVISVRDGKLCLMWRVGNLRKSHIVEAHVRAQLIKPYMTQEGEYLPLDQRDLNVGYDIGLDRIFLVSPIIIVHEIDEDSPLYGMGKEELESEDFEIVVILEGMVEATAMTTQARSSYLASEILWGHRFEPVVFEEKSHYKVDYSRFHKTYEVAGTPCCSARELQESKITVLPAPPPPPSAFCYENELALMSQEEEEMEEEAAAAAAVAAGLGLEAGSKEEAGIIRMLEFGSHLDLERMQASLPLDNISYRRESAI
CACNA1H: Voltage-dependent T-type calcium channel subunit alpha-1H (CACNA1H, Homo sapiens, UniProt O95180)
UniProt O95180, sequence (whole entry, looked up): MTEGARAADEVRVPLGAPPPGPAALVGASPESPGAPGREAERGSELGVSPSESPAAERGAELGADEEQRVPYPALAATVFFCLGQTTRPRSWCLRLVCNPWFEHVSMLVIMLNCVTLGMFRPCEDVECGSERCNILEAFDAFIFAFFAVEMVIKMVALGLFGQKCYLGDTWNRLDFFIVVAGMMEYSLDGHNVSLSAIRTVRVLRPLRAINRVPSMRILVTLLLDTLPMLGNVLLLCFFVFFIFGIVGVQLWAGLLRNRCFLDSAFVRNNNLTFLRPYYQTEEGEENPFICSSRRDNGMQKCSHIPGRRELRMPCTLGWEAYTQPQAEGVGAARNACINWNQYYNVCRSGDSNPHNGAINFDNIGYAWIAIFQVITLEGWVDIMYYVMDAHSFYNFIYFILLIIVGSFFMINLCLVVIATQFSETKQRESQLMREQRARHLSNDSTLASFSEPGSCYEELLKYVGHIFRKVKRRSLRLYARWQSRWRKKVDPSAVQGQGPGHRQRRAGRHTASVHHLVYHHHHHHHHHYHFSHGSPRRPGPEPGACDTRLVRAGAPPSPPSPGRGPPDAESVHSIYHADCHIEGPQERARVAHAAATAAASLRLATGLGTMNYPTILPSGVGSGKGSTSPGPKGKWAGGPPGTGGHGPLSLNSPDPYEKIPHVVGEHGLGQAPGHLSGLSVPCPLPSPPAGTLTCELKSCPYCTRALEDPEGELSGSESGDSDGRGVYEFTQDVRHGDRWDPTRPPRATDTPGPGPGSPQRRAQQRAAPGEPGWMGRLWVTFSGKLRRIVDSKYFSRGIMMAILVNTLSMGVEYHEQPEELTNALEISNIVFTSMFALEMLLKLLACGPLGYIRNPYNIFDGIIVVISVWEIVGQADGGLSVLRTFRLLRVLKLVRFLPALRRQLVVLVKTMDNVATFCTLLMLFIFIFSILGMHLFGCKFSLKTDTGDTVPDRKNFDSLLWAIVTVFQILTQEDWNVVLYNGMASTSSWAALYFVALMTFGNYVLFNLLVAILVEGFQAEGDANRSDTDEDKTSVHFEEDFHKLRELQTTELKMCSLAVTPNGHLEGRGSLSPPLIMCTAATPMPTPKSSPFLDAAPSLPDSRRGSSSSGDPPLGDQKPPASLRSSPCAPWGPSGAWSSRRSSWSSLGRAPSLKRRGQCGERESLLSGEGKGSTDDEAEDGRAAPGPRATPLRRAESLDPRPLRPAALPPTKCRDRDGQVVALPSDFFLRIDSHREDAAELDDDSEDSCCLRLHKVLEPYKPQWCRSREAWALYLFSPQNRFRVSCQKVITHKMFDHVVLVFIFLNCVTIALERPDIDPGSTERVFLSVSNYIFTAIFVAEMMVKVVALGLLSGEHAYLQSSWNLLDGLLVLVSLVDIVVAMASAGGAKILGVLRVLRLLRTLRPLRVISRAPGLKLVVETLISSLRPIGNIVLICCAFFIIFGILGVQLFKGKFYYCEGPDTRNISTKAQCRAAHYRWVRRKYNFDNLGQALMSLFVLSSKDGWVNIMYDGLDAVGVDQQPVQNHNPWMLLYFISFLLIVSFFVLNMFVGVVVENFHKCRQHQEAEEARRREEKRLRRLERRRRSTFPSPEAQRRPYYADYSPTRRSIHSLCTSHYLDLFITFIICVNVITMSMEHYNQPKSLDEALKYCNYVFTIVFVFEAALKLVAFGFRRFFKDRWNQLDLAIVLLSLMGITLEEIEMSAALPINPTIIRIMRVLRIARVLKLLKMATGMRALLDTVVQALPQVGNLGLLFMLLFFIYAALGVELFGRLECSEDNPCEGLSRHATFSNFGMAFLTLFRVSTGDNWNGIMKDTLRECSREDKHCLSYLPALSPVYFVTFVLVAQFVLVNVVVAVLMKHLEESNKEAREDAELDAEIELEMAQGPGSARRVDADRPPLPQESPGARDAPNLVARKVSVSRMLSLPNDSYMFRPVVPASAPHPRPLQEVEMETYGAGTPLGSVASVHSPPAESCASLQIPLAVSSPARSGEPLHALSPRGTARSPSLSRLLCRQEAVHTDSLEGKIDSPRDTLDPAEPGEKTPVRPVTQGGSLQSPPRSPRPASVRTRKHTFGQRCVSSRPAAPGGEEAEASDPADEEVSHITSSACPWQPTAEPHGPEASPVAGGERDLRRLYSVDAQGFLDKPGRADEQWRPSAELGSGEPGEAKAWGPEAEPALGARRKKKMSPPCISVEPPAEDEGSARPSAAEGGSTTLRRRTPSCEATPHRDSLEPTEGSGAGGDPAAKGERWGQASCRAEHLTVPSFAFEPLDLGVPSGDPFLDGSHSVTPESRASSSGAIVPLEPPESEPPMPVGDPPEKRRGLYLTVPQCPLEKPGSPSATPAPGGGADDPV
Kir1 channel protein: Kir1 channel protein (Aedes aegypti, UniProt L0EQS9)

| Compound | target | assay | test system | conditions | IC50 |
| --- | --- | --- | --- | --- | --- |
| N=c1n(Cc2ccccc2)c2ccccc2n1CC(O)COc1ccc(Cl)cc1Cl (stereo not shown) | KCNJ13 M125R | ion flux, inhibitor |  |  | 4.73 µM |
| Cc1cc(C)cc(S(=O)(=O)c2c(C(=O)NCCCCNS(=O)(=O)c3cccnc3)[nH]c3ccc(Cl)cc23)c1 | Gag-Pol polyprotein, reverse transcriptase (gag-pol, Human immunodeficiency virus 1, UniProt P03366) | reverse transcriptase activity, inhibitor, ELISA |  |  | 0.07 ± 0.009 µM |
| CCc1oc2ccccc2c1C(=O)c1cc(C(C)(C)C)c(O)c(C(C)(C)C)c1 | SLC22A12 (Homo sapiens, UniProt Q96S37) | transporter uptake, inhibitor, radiometric |  | oocytes | 0.25 µM |
| Cc1ccc(OCC(O)Cn2c(=N)n(C)c3ccccc32)cc1 (stereo not shown) | KCNJ13 M125R | ion flux, inhibitor |  |  | 25.3 µM |
| S=C(Nc1cccc(Cl)c1Cl)N1CCc2ccccc2C1 | Urease | enzyme activity, inhibitor, absorbance |  |  | 30.3 µM |
| C[C@@H]1O[C@@H](O[C@H]2[C@H](Oc3cc(O)c4c(c3)O[C@H](c3ccc(O)cc3)CC4=O)O[C@H](CO)[C@@H](O)[C@@H]2O)[C@H](O)[C@H](O)[C@H]1O | SLCO2B1 (Homo sapiens, UniProt O94956) | transporter uptake, inhibitor, radiometric | MDCK-II | 3 min, pH 6 | 34 to 40 µM and 20 to 50 µM |
| N#Cc1ccc([C@@H](Cc2ccc(OS(N)(=O)=O)c(Br)c2)n2cncn2)cc1 | STS | enzyme activity, inhibitor |  |  | 1.15 ± 0.05 µM |
| COc1cc(C2C(C#N)=C(N)Oc3c2c(=O)[nH]c2ccccc32)ccc1OCc1cn(Cc2ccc(C)cc2)nn1 (stereo not shown) | MAL12 (Saccharomyces cerevisiae S288c, UniProt P53341) | enzyme activity |  |  | 9.09 µM and 9.9 µM |
| Cc1cccc(Cc2nn(C(C)(C)C)c3ncnc(N)c23)c1 | EPHB1 (Homo sapiens, UniProt P54762, G703C) | enzyme activity, inhibitor, radiometric |  |  | 0.98 µM |
| COc1cccc(-c2cc(=O)c3ccccc3o2)c1N | KCNK18 (Homo sapiens, UniProt Q7Z418) | ion flux, inhibitor |  |  | 14.6 µM |
| CC12CC3CC(C)(C1)CC(N)(C3)C2 | Gria2 (Rattus norvegicus, UniProt P19491) | ion current, inhibitor, whole-cell patch-clamp |  | holding potential -60 mV, added: glutamate 10 mM, cyclothiazide 100 µM | 48 ± 3 µM |
| C#CCOc1ccc2oc(-c3ccccc3)cc(=O)c2c1 | Cyp2b1 | enzyme activity, inhibitor | supersomes | added: pentoxyresorufin 5 µM | > 10 µM |
| C[C@@H](CNCc1ccccc1)N1C[C@H](CCCNC(=N)N)N(CCc2cccc(F)c2)C1=S | DRD2 (Homo sapiens, UniProt P14416) | receptor activation, antagonist, FLIPR |  |  | > 10 µM |
| CN(C)c1ncc(O)cn1 | PTGS1 (Ovis aries, UniProt P05979) | enzyme activity, inhibitor |  | pH 8 | 18.4 µM |
| COc1cc(/C=N/NC(=O)COc2cc(C)cc3oc(=O)cc(C)c23)ccc1OCc1cn(Cc2ccc(F)cc2)nn1 | Urease | enzyme activity, inhibitor |  |  | 10.3 ± 1.09 µM |
| N=c1n(Cc2ccc(Cl)cc2)c2ccccc2n1CC(O)COc1ccc(Cl)cc1 (stereo not shown) | Inward rectifier potassium channel 4 | ion flux, inhibitor, fluorescence |  |  | 5.7 µM |
| O=c1cc(-c2cccc3ccccc23)[nH][nH]1 | ALPL (Homo sapiens, UniProt P05186) | enzyme activity, inhibitor, luminescence |  | added: 50 µM CDP-star, 100 mM DEA | 2.88 ± 0.086 µM |
| [Cl-].[Cl-].[Zn+2] | HVCN1 (Homo sapiens, UniProt Q96D96, D185H/H140A/H193A) | proton current, inhibitor, whole-cell voltage clamp | human cells | pH 6.5, test pulse 100 mV | 762 µM |
| NC(=O)N1c2ccccc2C[C@H](O)c2ccccc21 | CACNA1H | calcium current, inhibitor, whole-cell patch clamp | HEK293 | low-affinity component | 62.6 µM |
| [Cl-].[Cl-].[Zn+2] | SARM1 (Homo sapiens, UniProt Q6SZW1) | NAD hydrolase activity | cell lysate | added: ENAD substrate | 10 ± 3 µM |
| C=C1C(=O)O[C@H]2[C@H]1CC/C(C)=C/CC[C@@]1(C)O[C@@H]21 | HDAC (Lucilia cuprina egg nuclear extract) | enzyme activity, inhibitor, fluorometric |  |  | > 100 µM |
| COc1ccc(-c2nnc3n2N=C(c2ccc([N+](=O)[O-])cc2)CS3)cc1 | Urease | enzyme activity, inhibitor |  |  | 6.52 µM |

| Compound | target | assay | test system | conditions | IC50 |
| --- | --- | --- | --- | --- | --- |
| O=c1cc(-c2ccccc2O)oc2ccccc12 | Cyp2b1 | enzyme activity, inhibitor | supersomes | added: pentoxyresorufin 5 µM | > 50 µM |
| Cc1cc(OCC(=O)N/N=C/c2cccc(OCc3cn(Cc4ccc(Cl)cc4)nn3)c2)c2c(C)cc(=O)oc2c1 | Urease | enzyme activity, inhibitor |  |  | 9.59 µM |
| C=C(C)CCOP(=O)(O)OP(=O)(O)OP(=O)(O)OC[C@H]1O[C@@H](n2cnc3c(N)ncnc32)[C@H](O)[C@@H]1O | CDK7 (Homo sapiens, UniProt P50613) | enzyme activity, inhibitor, HotSpot kinase |  | added: ATP 1 µM | 1.6 µM |
| Nc1nc2c(ncn2[C@@H]2O[C@H](COP(=O)(O)OP(=O)(O)O)[C@@H](O)[C@H]2O)c(=O)[nH]1 | Tubulin alpha-1B chain/TUBB2B (Bos taurus, UniProt P81947+Q6B856) | assembly, inhibitor, turbidimetry |  | pH 6.9, 30 °C, bovine, no GTP, MAPs or Mg2+, added: paclitaxel 30 µM | 15 ± 6 µM |
| Cc1ncc(CNc2cc(N3CCN(S(=O)(=O)c4ccc(F)cc4)CC3)ccc2[N+](=O)[O-])o1 | Kir1 channel protein | ion flux, inhibitor, fluorescence |  |  | 0.609 µM |
| O=S(=O)(c1cc(C(=S)Nc2cc(F)c(F)c(F)c2)c(Cl)cc1Cl)N1CCOCC1 | LPAR1 (Homo sapiens, UniProt Q92633) | Ca2+ mobilization, antagonist | RH7777 | added: LPA at EC50 | > 100 µM |
| CCC(C)c1nc2cc(-c3nn(C(C)(C)C)c4ncnc(N)c34)ccc2s1 (stereo not shown) | RIPK3 (Homo sapiens, UniProt Q9Y572) | enzyme activity, inhibitor, ADP detection |  |  | 0.041 µM |
| Cc1ccccc1OCC(O)Cn1c(=N)n(Cc2ccccc2)c2ccccc21 (stereo not shown) | Inward rectifier potassium channel 4 | ion flux, inhibitor, fluorescence |  |  | 5.33 µM |
| NC/C(=C\F)COc1cccc(Cn2c(=S)[nH]c(=O)c3[nH]cnc32)c1 | Myeloperoxidase (MPO, Homo sapiens, UniProt P05164) | HOCl production |  | 6 min, enzyme 10 nM, added: H2O2 50 µM, taurine 5 mM | 0.25 µM |
| Cc1ccc2nc(C3CC3)n(-c3ccc4[nH]ncc4c3)c2n1 | GRIA1/CACNG8 (Homo sapiens, UniProt P42261+Q8WXS5) | calcium influx, antagonist, FLIPR | HEK293 expressing GluA1o | added: glutamate 100 µM | 0.0034 µM |
| O=C(O)CCNC(=S)NCCCC[C@H](NS(=O)(=O)c1cccc(F)c1)C(=O)N[C@@H](Cc1c[nH]c2ccccc12)C(=O)NC1CCC1 | SIRT5 (Homo sapiens, UniProt Q9NXA8) | inhibitor |  | 30 min, room temperature, added: glutaryl peptide substrate, 250 µM NAD+ | 0.047 ± 0.002 µM |
| COC(=O)C1=C(C)NC(C)=C(C(=O)OC)C1c1ccccc1[N+](=O)[O-] | CACNA1H | calcium current, blocker, automated patch clamp | holding potential -90 mV | last pulse of train, added: 1 Hz pulse train | > 3 µM |
| CC(C)(c1ccc(O)cc1)c1ccc(OCc2cccc(COc3ccc(C(=N)N)cc3)c2)cc1 | Leukotriene B4 receptor 1 (Cavia porcellus, UniProt H0VYV8, H83G/K88G/S309A) | radioligand binding, competition binding |  | 12 h, 4 °C, added: 0.5 nM [3H]-LTB4 | 0.0064 µM |
| NC(=O)c1cccc(-c2cc(OC(=O)NC3CCCCC3)ccc2O)c1 | Ephx2 (Rattus norvegicus, UniProt P80299) | enzyme activity, inhibitor, fluorescence |  | pH 7.4 | 16.6 µM |
| COc1cccc(OCC(O)Cn2c(=N)n(Cc3ccccc3)c3ccccc32)c1 (stereo not shown) | KCNJ13 M125R | ion flux, inhibitor |  |  | 3.47 µM |
| CC(Nc1cc(N2CCN(S(=O)(=O)c3ccc(F)cc3)CC2)ccc1[N+](=O)[O-])c1nccs1 (stereo not shown) | Kir1 channel protein | ion flux, inhibitor, fluorescence |  |  | 1.5 µM |
| Oc1cc(O)c2c(c1)O[C@H](c1ccc(O)c(O)c1)[C@H](O)[C@H]2c1c(O)cc(O)c2c1O[C@H](c1ccc(O)c(O)c1)[C@@H](O)C2 | alpha-glucosidase (Bacillus stearothermophilus) | inhibitor |  | 20 min, pH 6.8, 60 °C, added: pNPG substrate | 11.2 ± 1 µM |
| Nc1ccccc1NC(=O)c1ccc(CNc2nccc(-c3cccnc3)n2)cc1 | HDAC (Lucilia cuprina egg nuclear extract) | enzyme activity, inhibitor, fluorometric |  |  | > 100 µM |
| Cl.Cl.Cl.Cl.Cl.Cl.N.N.N.N.N.N.N.N.N.N.N.N.N.N.[O-2].[O-2].[Ru+3].[Ru+3].[Ru+4] | Kcnk2 (Mus musculus, UniProt P97438, G152I/I125D) | inhibitor, two-electrode voltage clamp | Xenopus oocytes | C-type gate gain-of-function mutant | 0.154 ± 0.023 µM |
| COc1cccc(Cn2c(=N)n(CC(O)COc3ccc(C)cc3)c3ccccc32)c1 (stereo not shown) | KCNJ13 M125R | ion flux, inhibitor |  |  | 3 µM |
| C[C@]12CC[C@@H]3c4cc(C(F)F)c(OS(N)(=O)=O)cc4CC[C@H]3[C@@H]1CCC2=O | STS | enzyme activity, inhibitor |  | lysate | 0.019 µM |
